Assay results pooled from the literature.
Each numbered part is a random draw from the data of one study; scales do not carry over between parts. Changes are numbered by the printed parent chain.

Series 1
Target: UBE2E3 UBC core domain (UniProt Q969T4)
Sequence of UniProt Q969T4 (whole entry, looked up): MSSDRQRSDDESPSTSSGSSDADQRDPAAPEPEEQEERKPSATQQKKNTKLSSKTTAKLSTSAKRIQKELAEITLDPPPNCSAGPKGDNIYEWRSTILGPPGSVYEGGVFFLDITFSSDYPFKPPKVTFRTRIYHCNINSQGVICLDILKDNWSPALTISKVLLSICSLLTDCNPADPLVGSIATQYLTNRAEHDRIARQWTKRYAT
Technique: yeast two-hybrid
Sample: yeast
Notes: mostly zero background
Relative to: not given
Reading: higher = stronger interaction
B1: BFAR RING domain (UniProt Q9NZS9); chain GPQISVSEFSCHCCYDILVNPTTLNCGHSFCRHCLALWWASSKKTECPECREKWEGFPKVS
B2: NFX1 RING domain (UniProt Q12986); chain IEQLTTEKYECMVCCELVRVTAPVWSCQSCYHVFHLNCIKKWARSPASQADGQSGWRCPACQNVSAHVPNTY
B3: ZMYND11 RING domain (UniProt Q15326); chain DEIDWETENHDWYCFECHLPGEVLICDLCFRVYHSKCLSDEFRLRDSSSPWQCPVCRSIKKKNTNKQEM
B4: CNOT4 RING domain (UniProt O95628); chain MSRSPDAKEDPVECPLCMEPLEIDDINFFPCTCGYQICRFCWHRIRTDENGLCPACRKPYPED
B5: RNF182 RING domain (UniProt Q8N6D2); chain AESQASDELECKICYNRYNLKQRKPKVLECCHRVCAKCLYKIIDFGDSPQGVIVCPFCRFETCLPDDEV
B6: RNF103 RING domain (UniProt O00237); chain WPADMLHCTECVVCLENFENGCLLMGLPCGHVFHQNCIVMWLAGGRHCCPVCRWPSYKKKQPY
B7: MARCHF1 RING domain (UniProt Q8TCQ1); chain TAPRSQSRLSVCPSTQDICRICHCEGDEESPLITPCRCTGTLRFVHQSCLHQWIKSSDTRCCELCKYDFIMETKLKPLRKWE
B8: ZNRF4 RING domain (UniProt Q8WWF5); chain VRTFTWHNDLCAICLDEYEEGDQLKILPCSHTYHCKCIDPWFSQAPRRSCPVCKQSVAATEDSF
B9: TRIM41 RING domain (UniProt Q8WV44); chain PVQTLQEEAVCAICLDYFTDPVSIGCGHNFCRVCVTQLWGGEDEEDRDELDREEEEEDGEEE
Molecule | lacZ reporter activity
DDVLTKDAGECVICLEELLQGDTIARLPCLCIYHKSCIDSWFEVNRSCPEHPAD (ZNRF1 RING domain (UniProt Q8ND25)) | 0
B1 (BFAR RING domain) | 0
B2 (NFX1 RING domain) | 0
B3 (ZMYND11 RING domain) | 0
B4 (CNOT4 RING domain) | 12700
LEALSSDFLACKICLEQLRAPKTLPCLHTYCQDCLAQLADGGRVRCPECRETVPVPPEGV (TRIM56 RING domain (UniProt Q9BRZ2)) | 0
B5 (RNF182 RING domain) | 0
B6 (RNF103 RING domain) | 0
ASEEEFQFLRCQQCQAEAKCPKLLPCLHTLCSGCLEASGMQCPICQAPWPLGADTP (PML RING domain (UniProt P29590)) | 0
B7 (MARCHF1 RING domain) | 0
B8 (ZNRF4 RING domain) | 14700
B9 (TRIM41 RING domain) | 0
FAEQPSVKLCCQLCCSVFKDPVITTCGHTFCRRCALKSEKCPVDNVKLTVVVNNI (TRAF7 RING domain (UniProt Q6Q0C0)) | 0

Series 2
Target: RING finger protein unkempt homolog, zinc fingers 1-6, GST-SBP tag (UNK, Homo sapiens, UniProt Q9C0B0, residues 30-357)
Technique: RNA Bind-n-Seq
Molecule type: RNA
Sample: in vitro
Concentration: not given
Notes: RNA with constant flanks, ends assumed
Relative to: input RNA pool
Reading: higher = stronger binding
Constant ends, left off below: GGGAGUUCUACAGUCCGACGAUC … CAACAGAGGAUUGAGCAUCA
Target sequence (chain): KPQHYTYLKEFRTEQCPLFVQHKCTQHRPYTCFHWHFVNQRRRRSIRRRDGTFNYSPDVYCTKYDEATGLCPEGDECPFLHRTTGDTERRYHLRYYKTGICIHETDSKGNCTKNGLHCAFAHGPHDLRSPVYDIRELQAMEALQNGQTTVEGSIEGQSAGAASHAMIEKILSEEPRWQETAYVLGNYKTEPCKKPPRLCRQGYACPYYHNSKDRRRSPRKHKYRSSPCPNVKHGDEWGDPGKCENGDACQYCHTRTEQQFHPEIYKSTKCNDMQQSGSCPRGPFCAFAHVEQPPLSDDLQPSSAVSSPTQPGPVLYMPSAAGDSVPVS
Oligonucleotide | bound/input enrichment
CUCUCCAGUUCCAAGGACUCGUAUACAGCUCCCAUUUAUAAUUUUGCCCUUAUUUUUAAGUCCGGAAAUAAUGAUUAACUUAUGAAUAAAUAGUAUGGGGCAAGAGUGGGAUUUCUUCCG | 0.438 ratio
UGAACUAAAGGAGUUAGCAUCUUUAUUUUUGUAUCAAAGAUAAAGGUUAUUUUGAAAAUUAUCCGGGUUUUUACAUAACUCUGGAAUCUGUUGCUUUUAUAAACAAAUUGUUCAAUUUUA | 10.7 ratio
CCCAGGCGGUCUUCCUUCAGAUUGCAGACUGAAGCCCAGGAAGAUGAUUGGUAUGACUGUCACCGGGAAAUACGUCUGAGUUUUUCUGAUACCUAUCAGGAUUAUGAGGAGUACUGGAGA | 0.105 ratio
AGUAGUACCAGUUUGCCACCUGUCGCUGAUGAAAGCCCAGUCACUGUAAAACCAGACCGUCAACUUGAAGACAUGGGAUACUGUGUGUUCAACAAGUACACAGUCCCUCUCCCAUCACCA | 0.305 ratio
GGCAUUGCCCUUGACCAUCUUGGUCGAACCAUCUUCUGGACGGACUCUCAGUUGGAUCGAACCGAAGUUGCAAAGAUGGAUGGCACCCAGCGCCGAGUGCUGUUUGACACGGGUUUGGUG | 0.0794 ratio
UUGCCUCCUCACUUUCCUGGGCAUUCCUCCGAGAUCUCCUGCCUCUCAACCUUUGCCCGUGCUAUUCUCUGUGCCUGGGACGAUACCUUUGACUCAUCUUCGACUGACCUAAUGGAGAGA | 0.463 ratio
CUGCUAGUGCAUGGGGCUUUAGCCUUUCCUCUAGGGUUAGAUUCCUACCAUGGCUGUGUUACCGCGGCUGCCCGCUAUGGCCGGGGCCGGGUGGUUGUGACUGGCCAUAAGGUAUUAUUC | 0.28 ratio
AUUUGCAGAAACAGCGAGAACUUCAAAAGGCCAAUCAGUAAGUUUGAUUUGAAAAAUGAAUUCCGAGAUUUUUGGACAUGGAAUGAACAAAAUGGGGUCAUAUUGGUACCUCCCUCUCUA | 0.26 ratio
ACUAAUGCAGUAAUUGCUGGGUUGAUAGUAUUGGAAGGAUUGAAGAUUUUAUCAGGAAAAACCGACCAGUGCAGAACAAUUUUUUUGAAUAAACAACCAAACCCAAGAAAGAAGCUUCUU | 0.119 ratio
GAACUGUUGAGCUCCUAUGAUGUAGAUGUUAAUCAGAUCAUAAAUACCAUAUCCGAAUGGACCGUUUUGAUUAAGACCAGAGGCGUUAGGCGACCUGAAUUUCAGACUUUACUAACGGAA | 0.102 ratio
GGCUCCCCUUCUACUGAAUUAGUUUCUGGAGGAUCUGAUAAUCAAGUGAUUCACUGGGAAACCGAGGAUAAUCAGCUUUUAAAAGCAGUGCAUCUUCAAGGCCAUGAAGGACCUGUUUAU | 0.149 ratio

Series 3
Target: CCNB3, cyclin fold, Cln2 fusion (human)
Technique: yeast growth competition, sequencing
Sample: yeast
Notes: weak parent motif
Relative to: not given
Reading: higher = stronger binding
Starting sequence: WEE2 docking peptide (human); KELRQKLNFSYCE; partner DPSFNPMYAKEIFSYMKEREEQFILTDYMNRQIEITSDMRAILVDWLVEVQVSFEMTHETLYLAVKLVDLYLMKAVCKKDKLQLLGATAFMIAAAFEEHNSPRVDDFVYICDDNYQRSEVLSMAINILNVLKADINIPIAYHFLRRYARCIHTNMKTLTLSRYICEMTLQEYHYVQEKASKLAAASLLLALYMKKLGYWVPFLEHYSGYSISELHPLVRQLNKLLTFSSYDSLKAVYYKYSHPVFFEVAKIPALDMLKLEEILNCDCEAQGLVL
Substitution | normalised enrichment score
R4A | -0.112
Y11A | -0.0485
L7A | -0.0647
C12A | -0.292
F9A | 0.26
K6A | 0.0245

Series 4
Target: ABI1, truncated, D143A, DHFR fusion (Arabidopsis thaliana)
Technique: DHFR PCA, deep sequencing
Sample: yeast
Notes: methotrexate growth selection, single substitutions
Together with: (+)-ABA 0.0091 µM
Relative to: wild-type fitted maximum
Reading: higher = stronger binding
Starting sequence: PYL1, truncated, DHFR fusion (Arabidopsis thaliana); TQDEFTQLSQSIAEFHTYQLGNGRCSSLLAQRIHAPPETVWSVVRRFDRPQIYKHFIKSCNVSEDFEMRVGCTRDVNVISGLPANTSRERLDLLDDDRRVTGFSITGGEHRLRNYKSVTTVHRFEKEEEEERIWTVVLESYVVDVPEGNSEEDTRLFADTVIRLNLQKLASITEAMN; partner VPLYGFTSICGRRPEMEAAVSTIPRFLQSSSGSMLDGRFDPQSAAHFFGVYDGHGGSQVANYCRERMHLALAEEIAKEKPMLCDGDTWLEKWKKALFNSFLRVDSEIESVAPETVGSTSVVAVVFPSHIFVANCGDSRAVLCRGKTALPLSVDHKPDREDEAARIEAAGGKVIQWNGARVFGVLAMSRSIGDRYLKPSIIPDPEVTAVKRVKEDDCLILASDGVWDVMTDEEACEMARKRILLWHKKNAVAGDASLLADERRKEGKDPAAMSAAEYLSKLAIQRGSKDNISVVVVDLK
Substitution | relative binding score
V136R | -9.41%
S42K | 11.1%
M176D | 8.65%
R49D | 3.44%
I12E | -0.814%
S80Y | 68.2%
R98W | -5.78%
R132M | 20.4%
A175Q | 28.6%
V70P | 31.8%
E174K | 5.29%
N165T | 1.42%
D65Q | 16.9%
H55W | 43%
R99V | -6.49%

Series 5
Target: PABPC1L2, full length, GST fusion (mouse, UniProt A0ABA7IW68)
Technique: RNAcompete
Molecule type: RNA
Sample: in vitro
Concentration: 20 nM
Notes: 7-mer, probes averaged, single round
Relative to: mean of 7-mers
Reading: higher = stronger binding
Target sequence (chain): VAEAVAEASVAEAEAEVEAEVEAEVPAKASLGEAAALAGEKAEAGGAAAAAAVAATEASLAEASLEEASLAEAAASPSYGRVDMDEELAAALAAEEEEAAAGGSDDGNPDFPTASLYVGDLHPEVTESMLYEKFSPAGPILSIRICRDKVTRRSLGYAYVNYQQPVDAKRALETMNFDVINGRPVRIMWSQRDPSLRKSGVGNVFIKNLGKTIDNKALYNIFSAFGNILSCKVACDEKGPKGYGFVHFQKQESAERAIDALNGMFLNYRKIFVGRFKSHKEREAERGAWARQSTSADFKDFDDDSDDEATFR
Oligonucleotide | 7-mer Z-score
UCCCUAA | -0.186
GAGUGUU | -0.416
UCCAUAA | 0.144
GAGUUGG | -0.146
GAAUGCA | -0.0718
CCCGACU | -0.306
AGUACAU | 0.131
UUGUGUU | -0.432
CCUUAUG | -0.322
GUGAGGG | 0.263
CAGAUAC | -0.112
AAAGCAC | 0.782
ACCUCGU | -0.362
AGGUCAC | 0.0406
CAGUUCG | -0.436
CCAACAU | -0.0355
CUCUAAA | 0.762
GGAGACA | 0.267

For quick reference, copied from above (series 5):
Oligonucleotide | 7-mer Z-score
GAAUGCA | -0.0718
CCCGACU | -0.306
AGUACAU | 0.131
UUGUGUU | -0.432
CCUUAUG | -0.322
GUGAGGG | 0.263
CAGAUAC | -0.112
AAAGCAC | 0.782
ACCUCGU | -0.362
AGGUCAC | 0.0406
CAGUUCG | -0.436
